Experimental data of several laboratories.
Target: Tyrosine-protein kinase JAK3 (JAK3, Homo sapiens, UniProt P52333)
Mode: inhibitor
Residues used in one study (P52333 1-1124): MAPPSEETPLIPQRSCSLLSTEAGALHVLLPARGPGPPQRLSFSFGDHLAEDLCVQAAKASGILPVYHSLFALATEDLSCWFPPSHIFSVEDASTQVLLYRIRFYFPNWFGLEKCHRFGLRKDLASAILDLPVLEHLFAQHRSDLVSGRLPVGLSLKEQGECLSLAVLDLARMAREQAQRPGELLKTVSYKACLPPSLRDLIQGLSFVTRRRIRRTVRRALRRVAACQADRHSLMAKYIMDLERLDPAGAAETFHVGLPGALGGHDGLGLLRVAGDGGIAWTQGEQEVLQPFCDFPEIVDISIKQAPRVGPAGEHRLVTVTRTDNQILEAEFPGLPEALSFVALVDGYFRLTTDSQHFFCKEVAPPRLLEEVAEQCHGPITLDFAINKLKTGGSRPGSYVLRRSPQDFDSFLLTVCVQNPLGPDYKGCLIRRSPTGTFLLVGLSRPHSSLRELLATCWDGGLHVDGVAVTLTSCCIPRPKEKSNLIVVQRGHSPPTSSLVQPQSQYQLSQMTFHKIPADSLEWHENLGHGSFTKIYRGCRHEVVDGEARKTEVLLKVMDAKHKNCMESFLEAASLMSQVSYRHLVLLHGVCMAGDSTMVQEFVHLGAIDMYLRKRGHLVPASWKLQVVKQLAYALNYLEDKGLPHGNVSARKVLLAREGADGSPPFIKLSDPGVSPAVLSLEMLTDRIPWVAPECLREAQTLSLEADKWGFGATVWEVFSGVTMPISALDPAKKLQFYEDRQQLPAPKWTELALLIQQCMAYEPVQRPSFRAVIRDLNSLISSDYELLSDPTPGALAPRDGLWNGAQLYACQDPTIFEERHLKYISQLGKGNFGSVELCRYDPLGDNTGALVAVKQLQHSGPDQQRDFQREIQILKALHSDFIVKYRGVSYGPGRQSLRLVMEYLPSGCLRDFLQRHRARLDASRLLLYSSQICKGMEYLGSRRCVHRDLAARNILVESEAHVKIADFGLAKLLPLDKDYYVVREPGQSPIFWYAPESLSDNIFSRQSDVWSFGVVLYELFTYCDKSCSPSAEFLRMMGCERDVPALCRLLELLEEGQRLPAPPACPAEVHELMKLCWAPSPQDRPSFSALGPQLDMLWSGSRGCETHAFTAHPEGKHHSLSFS

CCn1c(C)c(C(=O)c2ccccc2)c(=O)n1-c1cccc(S(N)(=O)=O)c1  IC50 (enzyme activity, ADP detection): 15.8 nM
C=CC(=O)Nc1cccc(Cn2ncc3cnc(Nc4cnn(CCOC)c4)nc32)c1  IC50 (kinase activity; together with: 1 mM ATP): 10.8 nM
CN(C1COC1)C(C)(C)/C=C(\C#N)C(=O)N1CCC[C@H]1Cn1nc(-c2ccc(Oc3ccccc3)cc2F)c2c(N)ncnc21  IC50 (enzyme activity): > 3000 nM
N#C/C(=C\c1cccc(-c2cnc3[nH]cnc3c2)c1)C(N)=O  IC50 (mean of two experiments, together with: ATP at Km): 93 nM
Cc1cnc(Nc2cc(C)c(C)c(C)c2)nc1Nc1ccc2oc(=O)[nH]c2c1  IC50 (enzyme activity; together with: ATP 1 mM): > 10000 nM
COc1cccc2[nH]cc(-c3nc4ccccc4[nH]c3=O)c12  IC50 (enzyme activity, ADP detection): 20 to 28 nM
CN(C(=O)c1ccn2ncc(-c3ccc(C(N)=O)cc3)c2c1)c1ccc(C#N)cn1  IC50 (enzyme activity): > 10000 nM
Cc1ccc2oc(-c3c4c(N)n[nH]c(=O)c4nn3-c3ccc(NC(=O)/C=C/CN(C)C)cc3)c(C)c2c1  IC50 (enzyme activity, FRET): > 1000 nM
Cc1nn(C)c(O)c1-c1nc2cc(Cl)c(Cl)cc2[nH]c1=O  IC50 (enzyme activity, ADP detection): 14.9 nM
CCn1c(C)c(C(=O)c2ccccc2)c(=O)n1-c1ccc(C)c(C)c1  IC50 (enzyme activity, ADP detection): 18.4 nM
